Literature values, collected from citations in different studies.
Each numbered part shows a few of the values that one paper quotes. Values after ≈ are worked out from the molar mass of the structure shown.

Series 1 — organism: Cryptosporidium parvum; method: high-throughput screen; concentration: concentration not given
Compound	activity
COc1ccc(CCN)cc1OC	inactive
COc1cccc(C2(O)CCCCC2CN(C)C)c1.Cl (centres unmarked)	inactive
CC(C)N(CCC(C(N)=O)(c1ccccc1)c1ccccn1)C(C)C (centres unmarked)	inactive
C[C@]12CCC(=O)C[C@@H]1CC[C@@H]1[C@@H]2CC[C@@]2(C)[C@H]1CC[C@]2(C)O	inactive
COc1ccc(C(CN(C)C)C2(O)CCCCC2)cc1 (centres unmarked)	inactive
c1ccc2c(c1)Nc1ccccc1S2	inactive
C[C@]12CC[C@H]3[C@@H](CCC4=CC(=O)CC[C@@H]43)[C@@H]1CC[C@@H]2O	inactive
CC(O)(CS(=O)(=O)c1ccc(F)cc1)C(=O)Nc1ccc(C#N)c(C(F)(F)F)c1 (centres unmarked)	inactive
C[C@]12CC[C@H](O)CC1=CC[C@@H]1[C@@H]2CC[C@]2(C)C(=O)CC[C@@H]12	inactive
CN1CC[C@@H](c2ccc(F)cc2)[C@H](COc2ccc3c(c2)OCO3)C1	inactive
O=C(O)CCCc1ccc(N(CCCl)CCCl)cc1	inactive
CC[C@@H](C(N)=O)N1CCCC1=O	inactive
Oc1ccc2c3c1O[C@H]1[C@@H](O)CC[C@@]4(O)[C@@H](C2)N(CC2CCC2)CC[C@]314	inactive

Single results of other studies
Structure (SMILES)	tested on	test	system	setting	how to read	measurement	value
C[C@H](c1ccccc1)n1cncc1C(=O)OCCC(=O)O		loss of righting reflex	Xenopus laevis tadpoles			EC50	2900 µM
COc1c(C(=O)/C=C/[c-]2cccc2)c(O)cc2occc12.[Fe+2].c1cc[cH-]c1	MCF7					IC50	17.2 µM
CC[C@H](C)CCCCC(=O)N[C@@H](CCN)C(=O)N[C@H](C(=O)N[C@@H](CCN)C(=O)N[C@H]1CCNC(=O)[C@H]([C@@H](C)O)NC(=O)[C@H](CCN)NC(=O)[C@H](CCN)NC(=O)[C@H](CC(C)C)NC(=O)[C@@H](CC(C)C)NC(=O)[C@H](CCN)NC1=O)[C@@H](C)O	Klebsiella pneumoniae		497			MIC	8 µg/mL (≈ 6.84 µM)
Clc1cc2c(cc1Cl)Oc1cc(Cl)c(Cl)cc1O2			human			half-life	7.2 to 8.7 years
CCC(=C(c1ccc(O)cc1)c1ccc(O)cc1)[c-]1cccc1.[Fe+2].c1cc[cH-]c1	MCF7					IC50	0.7 µM
C=C[C@@H]1C[C@]1(NC(=O)[C@@H]1C[C@@H]2CN1C(=O)[C@H](C(C)(C)C)NC(=O)O[C@@H]1C[C@H]1CCCCCc1nc3ccc(OC)cc3nc1O2)C(=O)NS(=O)(=O)C1CC1			plasma			unbound fraction	~1%
Cc1ncc2n1-c1ccc(Cl)cc1C(c1ccccc1F)=NC2	alpha-1-acid glycoprotein					fraction unbound	0.03
COC(=O)CCOC(=O)c1cncn1[C@H](C)c1ccccc1		loss of righting reflex	Xenopus laevis tadpoles			EC50	7.5 µM
N#C[C@@]1(c2ccc3c(N)ncnn23)O[C@H](COP(=O)(O)OP(=O)(O)OP(=O)(O)O)[C@@H](O)[C@H]1O	PBM cells					half-life	42.4 h
Cc1cc(O)cc2c(C3CCN(CC4CCN(C(=O)/C=C/c5ccc(Cl)c(Cl)c5)CC4)CC3)c[nH]c12	Plasmodium falciparum	whole cell extended time	3D7	72 h		IC50	1.09 µM
Cc1ncc2n1-c1ccc(Cl)cc1C(c1ccccc1F)=NC2			human	clinical		fraction absorbed	0.9
OCCN1CCN(CCC=C2c3ccccc3Sc3ccc(C(F)(F)F)cc32)CC1	MCF7	microarray, refers to: TSC22D3 mRNA		concentration not given	reference: DMSO	log2 fold change	1.23
Cc1nc(C)c(-c2ccc(Oc3ccc(OC(F)(F)F)cc3)cc2)c(OC(=O)N(CCNC(C)C)C(C)C)c1Br	Plasmodium falciparum	whole cell extended time	3D7	72 h		IC50	0.17 µM

A few entries again (series 1):
Compound	activity
c1ccc2c(c1)Nc1ccccc1S2	inactive
O=C(O)CCCc1ccc(N(CCCl)CCCl)cc1	inactive
